Results of several laboratories.
Compare with care: the assays were run in different laboratories.
Organism: Human immunodeficiency virus 1

CC1=C[C@@H]2C(=O)[C@]3(C=C(C)[C@H](O)[C@@]3(O)[C@@H]1O)[C@H](C)C[C@@H]1[C@H]2C1(C)C — IC50 (viral replication; MT4, NL43): > 1000 nM
C#C[C@]1(CO)O[C@@H](n2ccc(N)nc2=O)C[C@@H]1O — IC50 (cytopathic effect, MTT; MT4): 25.2 nM
O=c1c(O)c(-c2ccc(O)c(O)c2)oc2cc(O)cc(O)c12 — IC50 (viral replication; TZM-bl, BAL; 48 h): 3840 nM
Nc1nc(N)c2ncn([C@H]3C[C@H](O)[C@](CO)(CF)O3)c2n1 — IC50 (cytopathic effect, MTT; MT4): 3 nM
O=[N+]([O-])c1cc2nc(Cl)n(CCCO)c2cc1[N+](=O)[O-] — inhibition (viral replication, inhibitor; TZM-bl; 1 µg/mL): -0.46%
O=c1c(O)c(-c2ccc(O)cc2)oc2cc(O)cc(O)c12 — IC50 (viral replication; TZM-bl, BAL; 48 h): 8730 nM
Nc1ccn([C@H]2C[C@H](O)[C@](CO)(CF)O2)c(=O)n1 — IC50 (cytopathic effect, MTT; MT4): 32.9 nM
OCCCn1c(Cl)nc2ccccc21 — inhibition (viral replication, inhibitor; TZM-bl; 10 µg/mL): 4.56%
Cc1ccnc2c1NC(=O)c1cccnc1N2C1CC1 — IC90 (viral replication; MAGI-CCR5, NL43): 540 nM
OCCn1c(Cl)nc2ccccc21 — inhibition (viral replication, inhibitor; TZM-bl; 1 µg/mL): 0.27%
C=C(C)[C@]12C[C@@H](COC(=O)c3ccccc3)[C@@]34OC5(O[C@@H]1[C@@H]3[C@@H]1O[C@]1(COC(C)=O)[C@@H](OC(C)=O)[C@@]1(O)[C@H]4[C@H]([C@H](C)[C@@H]1OC(=O)c1ccccc1)[C@H](C)CCCCCC[C@H]5OC(C)=O)O2 — IC50 (viral replication, inhibitor; MT4, NL43; 72 h): ≥ 1 nM
C[C@]1(CO)O[C@@H](n2cnc3c(=O)[nH]c(N)nc32)C[C@@H]1O — IC50 (cytopathic effect, MTT; MT4): 171 nM
O=[N+]([O-])c1ccc2c(c1)nc(Cl)n2CCO — inhibition (viral replication, inhibitor; TZM-bl; 10 µg/mL): 15.6%

Excerpt of the above:
Cc1ccnc2c1NC(=O)c1cccnc1N2C1CC1 — IC90 (viral replication; MAGI-CCR5, NL43): 540 nM
OCCn1c(Cl)nc2ccccc21 — inhibition (viral replication, inhibitor; TZM-bl; 1 µg/mL): 0.27%
